Published values of several laboratories.
Each line is one published result; not all experiments were run side by side.
Target: Calcium/calmodulin-dependent protein kinase type II subunit alpha (CAMK2A, Homo sapiens, UniProt Q9UQM7)

Cc1cccc(O[C@H]2CCC[C@@H](C(C)CNCc3ccncc3)C2)c1 (relative stereo)
inhibition (enzyme activity, inhibitor; 1 µM): 4%

C=CC(=O)N1CCCC(n2c(=O)c3ncccc3n(Cc3ccc(Oc4ccccc4)cc3)c2=O)C1 (stereo not shown)
remaining binding (cell-free assay, competition with immobilised ligand; 1 µM): 97%

CC(C)=CC1OC(C)(C)C2C=C3C(=O)C(Cl)=CC(O)C3C3C(O)C4OC4C(=O)C132 (stereo not shown)
remaining binding (cell-free assay, competition with immobilised ligand; 10 µM): 65%

CCn1cc(C(=O)O)c(=O)c2c(N)c(F)c(NC3CCCCC3)cc21
inhibition (kinase activity; 0.1 µM, together with: ATP at Km): 13.3%

CCN1CCN(Cc2ccc(C(=O)Nc3ccc(C)c(NCc4cnc5[nH]ccc5c4OC)c3)cc2C(F)(F)F)CC1
remaining binding (binding, competition with immobilised ligand; 1 µM): 83%

C=CC(=O)N1Cc2nc(-c3cc(-c4cc(Cl)cnc4Cl)c(F)cc3F)n(-c3ccncn3)c2C1
inhibition (cell-free assay, inhibitor; 1 µM): 4.4%

CNC(=O)C[C@H](Cc1ccc(C#N)cc1)NC(=O)c1cc(-c2ccc(CN[C@H](C)c3ccc(C)cc3)o2)ccc1Cl
activity vs control (enzyme activity, inhibitor; 1 µM): 98%

COc1c(Cl)cccc1Nc1c(-c2ccncc2C#C[C@@]2(C)CCCN2C(=O)/C=C/CN(C)C)[nH]c2c1C(=O)NCC2
remaining binding (cell-free assay, competition with immobilised ligand; 3 µM): 97%

Cc1cnc2nc1Nc1cccc(c1)COC/C=C/COCc1cc(ccc1OCCN1CCOCC1)N2
remaining binding (binding; 0.1 µM): 98%

CNC1C[S+]2CC[S+]3CC[S+](C1)[Ru-4]321([N]=C=S)[n]2c3ccc(OC)cc3c3c4c(c5cc(F)c[n+]1c5c32)C(=O)NC4=O (stereo not shown)
remaining binding (KinomeScan; 0.1 µM; reference: untreated): 44%

NC(=O)C[C@H]1CCc2sc3ncnc(O[C@H]4CC[C@H](N5CCOCC5)CC4)c3c21
inhibition (enzyme activity, inhibitor; 10 µM): 21%

Cc1[nH]nc2c1N=C(c1ccccc1Cl)c1cnc(N3CCOCC3)cc1N2
inhibition (enzyme activity, inhibitor; 0.5 µM): 7.2%

C=CC(=O)Nc1cccc(-c2cnc3[nH]cc(C(=O)NC(C)(C)C)c3n2)c1
inhibition (enzyme activity, inhibitor; 0.1 µM): 0%

Repeated from above:
NC(=O)C[C@H]1CCc2sc3ncnc(O[C@H]4CC[C@H](N5CCOCC5)CC4)c3c21
inhibition (enzyme activity, inhibitor; 10 µM): 21%
